# Assay results gathered from unrelated publications.
# Each line is one published result; not all experiments were run side by side. Several values in a cell are separate wells, animals, samples, runs or records. ± gives the spread as reported.
SMILES,target or system,assay,test system,conditions,how to read,quantity,value
COc1ccc(C2NCCc3cc(O)c(O)cc32)cc1 (centres unmarked),,ferrozine,cell-free,"100 µM, DMSO solvent",,Fe2+ chelation,98.75 ± 0.31%
Cc1cc2cc(C(=O)N(Cc3ccc(C(F)(F)F)cn3)[C@H](C)c3ncccn3)ccc2nc1N,,"ELISA, measured: SDMA","mouse, HCT-116 MTAP-deleted xenograft, tumour","oral, 100 mg/kg once daily, 14 doses, 4 h after last dose",relative to: vehicle,inhibition,88%
C/C(=N\NC(=O)c1ccc(Cl)cc1)c1ccccn1,Trypanosoma cruzi,"reporter mRNA translation, inhibitor, measured: capped polyadenylated Renilla luciferase mRNA",cell-free extract,concentration not given,relative to: positive over negative control,translation activity,107% and 104% and 121% and 115%
CC(CCC(=O)NCc1ccc(C(=O)NO)cc1)C1CCC2C3C(O)CC4CC(O)CCC4(C)C3CCC12C (centres unmarked),,measured: GUDCA,"PCK rat (Pkhd1 mutant), bile","oral gavage, dose not given, 5 months",relative to: total bile acids,relative abundance,2.18%
O=Cc1ccc2cccc(O)c2n1,,HPLC-MS,,"pH 10.2, together with: 50 mM N-α-acetyl-lysine",,pseudo-first-order rate constant,0 h⁻¹
COCCOCCOCCNC(=O)Cc1cc(CC(=O)N[C@H]2C[C@H]3C(=O)Nc4cc(OCCOCCOCCOC)cc(n4)C(=O)N4CCC[C@H]4C(=O)Nc4cc(OCCOCCOCCOC)cc(n4)C(=O)N4CCC[C@H]4C(=O)Nc4cc(OCCOCCOCCOC)cc(n4)C(=O)N3C2)cc(CC(=O)N[C@H]2C[C@H]3C(=O)Nc4cc(OCCOCCOCCOC)cc(n4)C(=O)N4CCC[C@H]4C(=O)Nc4cc(OCCOCCOCCOC)cc(n4)C(=O)N4CCC[C@H]4C(=O)Nc4cc(OCCOCCOCCOC)cc(n4)C(=O)N3C2)c1,,"anion binding, ITC",water,"298 K, together with: sodium iodide",,ΔG,-4.92 ± 0.0956 kcal/mol
COC1OC(C)C(OS(=O)(=O)O)C(OC2OC(C)C(OS(=O)(=O)O)C(OC3OC(C)C(OS(=O)(=O)O)C(OC4OC(C)C(OS(=O)(=O)O)C(OC5OC(C)C(OS(=O)(=O)O)C(OC6OC(C)C(OS(=O)(=O)O)C(OC7OC(C)C(OS(=O)(=O)O)C(OC8OC(C)C(OS(=O)(=O)O)C(OC9OC(C)C(OS(=O)(=O)O)C(OC%10OC(C)C(OS(=O)(=O)O)C(OC%11OC(C)C(OS(=O)(=O)O)C(OC%12OC(C)C(OS(=O)(=O)O)C(OS(=O)(=O)O)C%12O)C%11O)C%10O)C9O)C8O)C7O)C6O)C5O)C4O)C3O)C2O)C1O (centres unmarked),,,human plasma,128 µg/mL,relative to: control,APTT prolongation,1.4 fold
CN1CCC[C@]1(C)/C=C/S(=O)(=O)NC(=O)Nc1c2c(cc3c1CCC3)CCC2,,,"human, whole blood ex vivo","25 mg single dose, 6 h, single ascending dose, together with: LPS and ATP",,IL-18 inhibition,94.8%
CN1CCC(N[C@@H]2CCc3[nH]c4c(C(N)=O)ccc(-c5ccccc5Cl)c4c3C2)CC1,,"organoid viability, CellTiter-Glo 3D","sample D colorectal cancer organoid, human",6 days,,IC50,8.46 nM
COC1CN([C@H]2CC[C@H]([C@@]3(C)Oc4c(Cl)cc(C(=O)NCc5c(SC)cc(C)[nH]c5=O)c(C)c4O3)CC2)C1,,"RNA-seq, measured: XKR6 mouse homolog","mouse, HT-1376 xenograft, whole blood",dose not given,relative to: vehicle,log2 fold change,1.32
COC1OC(C)C(OC2OC(C)C(OS(=O)(=O)O)C(OC3OC(C)C(OS(=O)(=O)O)C(OS(=O)(=O)O)C3O)C2O)C(OS(=O)(=O)O)C1O (centres unmarked),,,human plasma,128 µg/mL,relative to: control,APTT prolongation,1.1 fold
CC(C)NCC(SS(=O)(=O)O)c1ccccc1 (centres unmarked),,,"Swiss Webster mice, Schistosoma mansoni infected",100 mg/kg,relative to: vehicle control,spleen weight decrease,35%
COc1cc(O)ccc1CCC(c1ccc(O)cc1)c1cc2c(c(C)c1O)OC(c1ccc(O)cc1)CC2 (mixture of isomers),,measured: LTB4 isomers,human whole blood,"0.3 µM, together with: Escherichia coli",,amount,424 ± 95 pg/mL blood
O=C(NCc1cn(-c2ccccc2)nc1-c1ccccc1)c1cc([N+](=O)[O-])cc([N+](=O)[O-])c1,Trypanosoma cruzi,"reporter mRNA translation, inhibitor, measured: Renilla luciferase mRNA",cell-free extract,"concentration not given, test 2",relative to: positive over negative control,translation activity,82.8%

# Excerpt of the above:
SMILES,target or system,assay,test system,conditions,how to read,quantity,value
COC1OC(C)C(OC2OC(C)C(OS(=O)(=O)O)C(OC3OC(C)C(OS(=O)(=O)O)C(OS(=O)(=O)O)C3O)C2O)C(OS(=O)(=O)O)C1O (centres unmarked),,,human plasma,128 µg/mL,relative to: control,APTT prolongation,1.1 fold
